Published values collected from several papers.
Compare with care: the assays were run in different laboratories. Several values in a cell are separate wells, animals, samples, runs or records.
UniProt Q9HC35, sequence (whole entry, looked up): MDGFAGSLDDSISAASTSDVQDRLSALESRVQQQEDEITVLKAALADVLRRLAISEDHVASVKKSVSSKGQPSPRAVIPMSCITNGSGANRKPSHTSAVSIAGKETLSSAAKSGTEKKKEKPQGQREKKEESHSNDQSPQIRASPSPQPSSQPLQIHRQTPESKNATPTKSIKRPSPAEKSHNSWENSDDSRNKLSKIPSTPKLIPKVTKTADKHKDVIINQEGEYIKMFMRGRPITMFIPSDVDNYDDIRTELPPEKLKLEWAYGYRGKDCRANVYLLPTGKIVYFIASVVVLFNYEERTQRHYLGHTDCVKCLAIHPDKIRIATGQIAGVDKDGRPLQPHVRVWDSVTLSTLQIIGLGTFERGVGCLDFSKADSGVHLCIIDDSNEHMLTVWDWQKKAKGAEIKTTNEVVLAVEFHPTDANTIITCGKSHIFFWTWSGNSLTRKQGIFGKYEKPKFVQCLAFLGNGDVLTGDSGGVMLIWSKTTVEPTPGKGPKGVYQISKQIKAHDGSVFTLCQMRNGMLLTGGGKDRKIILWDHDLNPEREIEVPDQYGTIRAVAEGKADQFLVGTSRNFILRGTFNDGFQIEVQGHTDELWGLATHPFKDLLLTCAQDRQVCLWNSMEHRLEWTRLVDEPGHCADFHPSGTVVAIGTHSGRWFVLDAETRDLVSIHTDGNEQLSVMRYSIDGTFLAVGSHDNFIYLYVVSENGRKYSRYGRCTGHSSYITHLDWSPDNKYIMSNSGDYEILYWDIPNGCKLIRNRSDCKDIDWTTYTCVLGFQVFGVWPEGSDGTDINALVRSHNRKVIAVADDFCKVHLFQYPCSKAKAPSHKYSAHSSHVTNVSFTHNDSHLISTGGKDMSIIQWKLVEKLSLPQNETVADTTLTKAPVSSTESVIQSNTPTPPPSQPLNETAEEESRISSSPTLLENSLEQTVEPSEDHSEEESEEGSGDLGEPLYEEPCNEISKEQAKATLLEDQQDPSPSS
UniProt Q9UM73, sequence (whole entry, looked up): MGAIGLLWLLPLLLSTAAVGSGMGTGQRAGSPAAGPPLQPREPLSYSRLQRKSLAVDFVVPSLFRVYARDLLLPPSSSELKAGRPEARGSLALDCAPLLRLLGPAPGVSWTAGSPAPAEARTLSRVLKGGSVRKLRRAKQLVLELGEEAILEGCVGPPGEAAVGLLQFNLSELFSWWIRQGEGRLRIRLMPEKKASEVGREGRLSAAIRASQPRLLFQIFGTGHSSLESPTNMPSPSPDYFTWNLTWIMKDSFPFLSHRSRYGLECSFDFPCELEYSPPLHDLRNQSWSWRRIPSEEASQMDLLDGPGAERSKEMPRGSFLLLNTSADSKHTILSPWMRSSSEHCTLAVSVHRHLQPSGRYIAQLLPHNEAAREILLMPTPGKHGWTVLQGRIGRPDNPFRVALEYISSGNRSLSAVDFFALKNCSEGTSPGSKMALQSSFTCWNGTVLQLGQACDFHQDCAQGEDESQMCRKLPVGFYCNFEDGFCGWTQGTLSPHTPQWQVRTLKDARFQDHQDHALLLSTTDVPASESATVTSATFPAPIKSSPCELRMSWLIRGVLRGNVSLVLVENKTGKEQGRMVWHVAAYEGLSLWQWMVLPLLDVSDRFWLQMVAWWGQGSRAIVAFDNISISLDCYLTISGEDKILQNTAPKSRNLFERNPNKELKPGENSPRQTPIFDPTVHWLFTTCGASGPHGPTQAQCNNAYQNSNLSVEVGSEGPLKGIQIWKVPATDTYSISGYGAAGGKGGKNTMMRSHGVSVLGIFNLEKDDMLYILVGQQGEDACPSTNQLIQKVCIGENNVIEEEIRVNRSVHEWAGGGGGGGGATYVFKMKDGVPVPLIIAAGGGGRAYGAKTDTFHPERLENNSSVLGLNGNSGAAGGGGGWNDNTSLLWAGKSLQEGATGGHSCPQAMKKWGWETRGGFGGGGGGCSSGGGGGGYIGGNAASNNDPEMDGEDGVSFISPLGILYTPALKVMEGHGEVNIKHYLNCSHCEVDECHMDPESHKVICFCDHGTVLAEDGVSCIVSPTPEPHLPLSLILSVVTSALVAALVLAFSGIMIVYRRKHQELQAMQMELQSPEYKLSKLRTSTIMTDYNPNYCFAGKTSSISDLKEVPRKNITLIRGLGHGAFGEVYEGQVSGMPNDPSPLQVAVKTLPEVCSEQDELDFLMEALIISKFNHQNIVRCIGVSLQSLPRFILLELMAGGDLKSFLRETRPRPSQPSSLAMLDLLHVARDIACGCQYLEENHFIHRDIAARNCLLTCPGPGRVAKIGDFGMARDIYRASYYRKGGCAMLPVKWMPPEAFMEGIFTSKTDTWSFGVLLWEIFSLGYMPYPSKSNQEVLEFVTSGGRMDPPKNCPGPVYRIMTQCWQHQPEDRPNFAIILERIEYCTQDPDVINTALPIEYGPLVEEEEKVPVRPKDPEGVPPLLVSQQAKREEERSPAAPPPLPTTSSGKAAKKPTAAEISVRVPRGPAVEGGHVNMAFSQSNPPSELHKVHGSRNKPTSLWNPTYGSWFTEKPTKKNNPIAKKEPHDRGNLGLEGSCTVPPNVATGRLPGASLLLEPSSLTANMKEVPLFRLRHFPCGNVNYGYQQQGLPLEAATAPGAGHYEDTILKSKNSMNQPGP
UniProt Q16774, sequence (whole entry, looked up): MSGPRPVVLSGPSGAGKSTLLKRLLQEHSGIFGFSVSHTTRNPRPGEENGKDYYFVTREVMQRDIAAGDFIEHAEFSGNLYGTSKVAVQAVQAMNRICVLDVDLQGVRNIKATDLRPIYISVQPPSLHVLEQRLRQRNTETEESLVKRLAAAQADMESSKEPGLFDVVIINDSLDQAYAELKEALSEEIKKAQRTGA
UniProt P11388, sequence (whole entry, looked up): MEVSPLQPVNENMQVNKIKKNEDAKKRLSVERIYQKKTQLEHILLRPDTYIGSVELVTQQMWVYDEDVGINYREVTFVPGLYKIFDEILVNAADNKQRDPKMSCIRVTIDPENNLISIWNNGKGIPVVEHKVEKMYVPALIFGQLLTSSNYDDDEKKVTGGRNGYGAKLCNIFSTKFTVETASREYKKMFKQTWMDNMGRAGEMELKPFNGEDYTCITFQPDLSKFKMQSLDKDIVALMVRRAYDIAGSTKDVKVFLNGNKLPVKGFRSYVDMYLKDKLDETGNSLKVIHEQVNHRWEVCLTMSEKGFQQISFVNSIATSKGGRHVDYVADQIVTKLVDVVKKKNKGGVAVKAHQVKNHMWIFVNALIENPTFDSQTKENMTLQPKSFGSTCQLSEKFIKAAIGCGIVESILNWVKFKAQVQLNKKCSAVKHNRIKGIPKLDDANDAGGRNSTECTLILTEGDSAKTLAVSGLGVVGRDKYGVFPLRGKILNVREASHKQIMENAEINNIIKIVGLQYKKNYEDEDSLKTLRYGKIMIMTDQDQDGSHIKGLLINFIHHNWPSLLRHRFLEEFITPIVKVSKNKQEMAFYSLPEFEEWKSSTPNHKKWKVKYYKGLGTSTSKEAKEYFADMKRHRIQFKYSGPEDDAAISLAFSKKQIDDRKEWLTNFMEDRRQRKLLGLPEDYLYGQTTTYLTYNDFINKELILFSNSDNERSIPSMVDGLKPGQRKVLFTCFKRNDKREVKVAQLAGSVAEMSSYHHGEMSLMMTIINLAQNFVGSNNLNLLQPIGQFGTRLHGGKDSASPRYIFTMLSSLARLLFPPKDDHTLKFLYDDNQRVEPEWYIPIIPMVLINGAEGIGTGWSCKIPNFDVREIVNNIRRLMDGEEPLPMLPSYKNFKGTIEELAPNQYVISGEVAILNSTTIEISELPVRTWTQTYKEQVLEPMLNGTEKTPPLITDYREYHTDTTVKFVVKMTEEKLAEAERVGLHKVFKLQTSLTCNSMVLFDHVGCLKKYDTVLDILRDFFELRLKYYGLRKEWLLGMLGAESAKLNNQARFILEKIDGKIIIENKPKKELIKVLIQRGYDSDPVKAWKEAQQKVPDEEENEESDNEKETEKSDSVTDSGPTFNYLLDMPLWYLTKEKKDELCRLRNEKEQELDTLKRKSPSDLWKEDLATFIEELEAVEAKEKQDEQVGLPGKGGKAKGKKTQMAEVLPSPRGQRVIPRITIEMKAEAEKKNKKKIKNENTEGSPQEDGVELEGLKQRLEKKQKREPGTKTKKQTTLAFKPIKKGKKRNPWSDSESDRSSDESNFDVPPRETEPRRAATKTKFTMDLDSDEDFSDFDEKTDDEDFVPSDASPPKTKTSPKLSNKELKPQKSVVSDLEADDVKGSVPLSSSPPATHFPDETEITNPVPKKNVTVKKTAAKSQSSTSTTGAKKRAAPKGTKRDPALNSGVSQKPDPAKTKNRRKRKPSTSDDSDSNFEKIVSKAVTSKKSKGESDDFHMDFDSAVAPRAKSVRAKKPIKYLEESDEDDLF
UniProt P30550, sequence (whole entry, looked up): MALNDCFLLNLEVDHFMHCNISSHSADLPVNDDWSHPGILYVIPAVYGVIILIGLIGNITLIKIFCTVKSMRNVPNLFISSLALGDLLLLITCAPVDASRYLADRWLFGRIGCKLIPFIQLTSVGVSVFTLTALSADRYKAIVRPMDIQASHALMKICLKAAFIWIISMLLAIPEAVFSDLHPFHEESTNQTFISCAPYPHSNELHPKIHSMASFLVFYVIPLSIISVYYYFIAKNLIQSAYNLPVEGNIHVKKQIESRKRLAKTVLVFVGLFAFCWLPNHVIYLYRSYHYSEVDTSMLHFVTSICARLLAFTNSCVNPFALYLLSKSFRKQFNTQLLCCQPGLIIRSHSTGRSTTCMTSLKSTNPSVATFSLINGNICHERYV
UniProt Q9Y3R4, sequence (whole entry, looked up): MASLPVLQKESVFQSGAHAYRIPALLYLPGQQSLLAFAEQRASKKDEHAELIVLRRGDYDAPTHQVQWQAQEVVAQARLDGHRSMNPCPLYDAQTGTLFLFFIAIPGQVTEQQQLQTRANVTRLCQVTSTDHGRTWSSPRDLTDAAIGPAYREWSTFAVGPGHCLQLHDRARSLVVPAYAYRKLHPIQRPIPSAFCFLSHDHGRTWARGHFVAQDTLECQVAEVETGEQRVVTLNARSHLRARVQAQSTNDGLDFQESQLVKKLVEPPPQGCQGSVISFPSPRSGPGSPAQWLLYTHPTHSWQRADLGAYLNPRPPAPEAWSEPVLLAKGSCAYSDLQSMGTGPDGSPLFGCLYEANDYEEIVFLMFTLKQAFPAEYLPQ

CC[C@H](C)[C@H](NC(=O)[C@H](Cc1ccccc1)NC(=O)[C@H](CCC(=O)O)NC(=O)[C@H](CCCNC(=N)N)NC(=O)[C@H](C)NC(=O)[C@H](C)NC(=O)[C@H](CCC(N)=O)NC(=O)[C@H](CCC(=O)O)NC(=O)[C@H](CCC(=O)O)NC(=O)[C@H](CC(C)C)NC(=O)[C@H](Cc1ccc(O)cc1)NC(=O)[C@H](CO)NC(=O)[C@H](CO)NC(=O)[C@@H](NC(=O)[C@H](CC(=O)O)NC(=O)[C@H](CO)NC(=O)[C@@H](NC(=O)[C@H](Cc1ccccc1)NC(=O)[C@@H](NC(=O)CNC(=O)[C@H](CCC(=O)O)NC(=O)[C@H](C)NC(=O)CCc1cnc[nH]1)[C@@H](C)O)[C@@H](C)O)C(C)C)C(=O)N[C@@H](C)C(=O)N[C@@H](Cc1c[nH]c2ccccc12)C(=O)N[C@@H](CC(C)C)C(=O)N[C@H](C(=O)N[C@@H](CCCCNC(=O)COCCOCCNC(=O)COCCOCCNC(=O)CC[C@H](NC(=O)CCCCCCCCCCCCCCCCC(=O)O)C(=O)O)C(=O)NCC(=O)N[C@@H](CCCNC(=N)N)C(=O)N[C@@H](CCCCNc1c(NCCCCCN(O)C(=O)CCC(=O)NCCCCCN(O)C(=O)CCC(=O)NCCCCCN(O)C(C)=O)c(=O)c1=O)C(=O)NCC(=O)NCC(=O)N[C@@H](CO)C(=O)N[C@@H](CCCCNc1c(NCCCCCN(O)C(=O)CCC(=O)NCCCCCN(O)C(=O)CCC(=O)NCCCCCN(O)C(C)=O)c(=O)c1=O)C(=O)O)C(C)C
fold potency loss (GLP1R (Homo sapiens, UniProt P43220); agonist, CRE luciferase reporter; BHK cells; metal-free DFO conjugate, added: 1% HSA; baseline: parent peptide): 1.9

NCCCCC(=O)O
fraction bound (SLC6A6 (Homo sapiens, UniProt P31641, Y138A); binding, microscale thermophoresis; 40.3 nM, fitted curve; higher = more binding): 0

CN1CCN(c2cc(-c3ccncc3)c(-c3ccc4ccccc4c3)nn2)CC1
activation (GRPR (Homo sapiens, UniProt P30550); agonist, FLIPR; 12.5 µM): -1.5%

COc1cc(N2CCC(N3CCN(C)CC3)CC2)ccc1Nc1ncc(Cl)c(Nc2ccccc2P(C)(C)=O)n1
protein level (ALK tyrosine kinase receptor/Echinoderm microtubule-associated protein-like 4 (Homo sapiens, UniProt Q9HC35+Q9UM73); degrader, immunoblotting, refers to: ALK tyrosine kinase receptor/Echinoderm microtubule-associated protein-like 4; Ba/F3 EML4-ALK; concentration not given, 3 h, unit not given; baseline: untreated): 0.971 and 1.12

[N-]=[N+]=NCC(=O)N[C@H]1[C@H]([C@H](O)[C@H](O)CO)O[C@@](OC[C@H]2O[C@@H](Oc3ccc([N+](=O)[O-])cc3)[C@H](O)[C@@H](O)[C@H]2O)(C(=O)O)C[C@@H]1O
sialic acid release (Sialidase-2 (Homo sapiens, UniProt Q9Y3R4); substrate; 0.3 mM, 30 min, pH 5.0, 37 °C): 29%

[Cl-].[Na+]
reaction velocity (GUK1 (Homo sapiens, UniProt Q16774); enzyme activity, NADH-coupled; 15 mM): 0.0616 µM/s and 0.0214 µM/s and 0.0195 µM/s

O=c1nc(SCc2cc(F)cc(C(F)(F)F)c2)nc(SCc2ccc3sccc3c2)[nH]1
ATP hydrolysis rate (TOP2A (Homo sapiens, UniProt P11388); ATPase activity; 7.8 µM, added: ATP 0.75 mM): 1.26 µM/min and 1.63 µM/min

CC1(C)CC2(C)OC(=O)NC2(C)c2ccccc21 (stereo not drawn)
log fold enrichment (Transcription intermediary factor 1-alpha, PHD-bromodomain (TRIM24, Homo sapiens, UniProt O15164); binding, affinity selection mass spectrometry; baseline: other proteins in batch): -0.103

COc1cc(-c2cc(C(C)=O)n3ccccc23)cc(OC)c1Cn1ccnc1
ΔTm (TRIM24 (Homo sapiens, UniProt O15164)): -0.1 °C
